Results pooled from the literature.
Lines come from different studies, so protocols differ. ± marks the error that the study gave.

SMILES	system	conditions	tissue uptake
CC(C)[C@H](NC(=O)[C@@H]1CCCN1C(=O)[C@H](CCCNC(=N)N)NC(=O)[C@H](CS)NC(=O)[C@H](Cc1c[nH]c2ccccc12)NC(=O)[C@H](CCCNC(=N)N)NC(=O)[C@@H](Cc1ccccc1)NC(=O)[C@H](Cc1c[nH]cn1)NC(=O)[C@H](CCC(=O)O)NC(=O)[C@H](CS)NC(=O)[C@H](CS)NC(=O)[C@@H]1CC(=O)N[C@@H](CCCNC(=N)N)C(=O)NCC(=O)N[C@@H](CC(=O)O)C(=O)N[C@H](Cc2ccc(O)cc2)C(=O)N1)C(N)=O [technetium-99m labelled]	C57 mouse, female, B16/F1 melanoma, stomach	intravenous, 0.037 MBq, 4 h	0.85 ± 0.19 %ID/g
CCCC[C@H](NC(=O)CNC(=O)CNC(=O)CN1CCN(CC(=O)O)CCN(CC(=O)O)CCN(CC(=O)O)CC1)C(=O)N[C@H]1CC(=O)NCCCC[C@@H](C(N)=O)NC(=O)[C@H](Cc2c[nH]c3ccccc23)NC(=O)[C@H](CCCNC(=N)N)NC(=O)[C@@H](Cc2ccccc2)NC(=O)[C@H](Cc2c[nH]cn2)NC1=O [copper-64 labelled]	C57 mouse B16/F1 melanoma, spleen	0.5 h	1.43 ± 0.58 %ID/g
CCCC[C@H](NC(=O)CNC(=O)CNC(=O)CN1CCN(CC(=O)O)CCN(CC(=O)O)CCN(CC(=O)O)CC1)C(=O)N[C@H]1CC(=O)NCCCC[C@@H](C(N)=O)NC(=O)[C@H](Cc2c[nH]c3ccccc23)NC(=O)[C@H](CCCNC(=N)N)NC(=O)[C@@H](Cc2ccccc2)NC(=O)[C@H](Cc2c[nH]cn2)NC1=O [lead-203 labelled]	C57 mouse, blood	intravenous, 0.056 MBq, 24 h	0.3 ± 0.05 %ID/g
CC(C)[C@H](NC(=O)[C@@H]1CCCN1C(=O)[C@H](CCCNC(=N)N)NC(=O)[C@H](CS)NC(=O)[C@H](Cc1c[nH]c2ccccc12)NC(=O)[C@H](CCCNC(=N)N)NC(=O)[C@@H](Cc1ccccc1)NC(=O)[C@H](Cc1c[nH]cn1)NC(=O)[C@H](CCC(=O)O)NC(=O)[C@H](CS)NC(=O)[C@H](CS)NC(=O)CNC(=O)[C@@H]1CC(=O)N[C@@H](CCCNC(=N)N)C(=O)NCC(=O)N[C@@H](CC(=O)O)C(=O)N[C@H](Cc2ccc(O)cc2)C(=O)N1)C(N)=O [technetium-99m labelled]	C57 mouse, female, B16/F1 melanoma, muscle	intravenous, 0.037 MBq, 0.5 h	1.02 ± 0.7 %ID/g
O=C(O)C1CN(Cc2ccc(-c3noc(-c4ccc(OCC[18F])c(C(F)(F)F)c4)n3)cc2)C1	Sprague-Dawley rat, male, normal, thymus	iv, 30 min	0.151 ± 0.01 %ID/g
O=C([O-])CN1CCN(CC(=O)[O-])CCN(CC(=O)NCCc2ccc3c(c2)C2C=CCC2C(c2cc4c(cc2Br)OCO4)N3)CCN(CC(=O)[O-])CC1.[111In+3] (centres unmarked)	mouse, Hec50 endometrial tumour, muscle	1 h post injection	0.43 ± 0.11 %ID/g
CCCC[C@@H]1NC(=O)[C@@H](NC(=O)[C@H](CCC(=O)O)NC(=O)CNC(=O)CN2CCN(CC(=O)O)CCN(CC(=O)O)CCN(CC(=O)O)CC2)CCCCNC(=O)C[C@@H](C(N)=O)NC(=O)[C@H](C(C)C)NC(=O)[C@@H]2CCCN2C(=O)[C@H](CCCNC(=N)N)NC(=O)CNC(=O)[C@H](Cc2c[nH]c3ccccc23)NC(=O)[C@H](CCCNC(=N)N)NC(=O)[C@@H](Cc2ccccc2)NC(=O)[C@H](Cc2c[nH]cn2)NC(=O)[C@H](CCC(=O)O)NC1=O [gallium-67 labelled]	C57 mice with B16/F1 melanoma, brain	intravenous, 2 h	0.01 ± 0.01 %ID/g
O=C([O-])CN1CCN(CC(=O)[O-])CCN(CC(=O)[O-])CCN(CC(=O)[O-])CC1.[64Cu+2]	healthy athymic nude mice, large intestine	intravenous, 15 min	0.42 %ID/g
OCc1cn(Cc2ccc(-c3noc(-c4ccc(OCC[18F])c(C(F)(F)F)c4)n3)cc2)nn1	female Lewis rat, fat	intravenous, 30 min	0.62 ± 0.1 %ID/g
CN(C)c1ccc(-c2nc3ccc(OCCCCCN4CCN5CCN(CC4)CC(=O)[O][Al]([18F])[O]C(=O)C5)cc3s2)cc1	ICR mouse, spleen	intravenous, 2 min	8.38 ± 1.84 %ID/g
CCCC[C@H](NC(=O)CN1CCC(NC(=O)CN2CCN(CC(=O)O)CCN(CC(=O)O)CCN(CC(=O)O)CC2)CC1)C(=O)N[C@H]1CC(=O)NCCCC[C@@H](C(N)=O)NC(=O)[C@H](Cc2c[nH]c3ccccc23)NC(=O)[C@H](CCCNC(=N)N)NC(=O)[C@@H](Cc2ccccc2)NC(=O)[C@H](Cc2c[nH]cn2)NC1=O [gallium-68 labelled]	male C57BL/6J mice, B16-F10 tumours, intestine	intravenous, 1 h, blocking study, with: 100 µg non-radioactive Ga-peptide	1.2 ± 0.6 %ID/g

Repeated from above:
SMILES	system	conditions	tissue uptake
O=C([O-])CN1CCN(CC(=O)[O-])CCN(CC(=O)NCCc2ccc3c(c2)C2C=CCC2C(c2cc4c(cc2Br)OCO4)N3)CCN(CC(=O)[O-])CC1.[111In+3] (centres unmarked)	mouse, Hec50 endometrial tumour, muscle	1 h post injection	0.43 ± 0.11 %ID/g
